Experimental data from different studies.
Each numbered part is a random draw from the data of one study; scales do not carry over between parts.
Sequence of UniProt Q92630 (whole entry, looked up): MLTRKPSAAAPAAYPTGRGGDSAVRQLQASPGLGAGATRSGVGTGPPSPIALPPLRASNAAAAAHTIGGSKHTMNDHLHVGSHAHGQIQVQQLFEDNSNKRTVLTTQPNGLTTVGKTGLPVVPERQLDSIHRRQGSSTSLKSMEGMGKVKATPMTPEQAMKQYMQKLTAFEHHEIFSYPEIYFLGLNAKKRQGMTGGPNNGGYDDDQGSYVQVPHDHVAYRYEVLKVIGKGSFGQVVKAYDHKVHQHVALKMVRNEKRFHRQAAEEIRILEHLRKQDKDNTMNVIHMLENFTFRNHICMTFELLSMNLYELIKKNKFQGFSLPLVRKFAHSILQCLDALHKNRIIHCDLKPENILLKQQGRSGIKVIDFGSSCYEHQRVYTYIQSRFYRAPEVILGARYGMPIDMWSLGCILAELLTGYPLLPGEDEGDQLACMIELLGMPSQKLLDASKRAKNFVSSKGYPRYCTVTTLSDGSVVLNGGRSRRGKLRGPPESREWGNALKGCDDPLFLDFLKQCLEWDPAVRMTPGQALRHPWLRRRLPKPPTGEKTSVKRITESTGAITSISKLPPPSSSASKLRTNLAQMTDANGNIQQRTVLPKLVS

Study 1
Target: Probable WRKY transcription factor 33, N-terminal DNA-binding domain (WRKY33, Arabidopsis thaliana, UniProt Q8S8P5, residues 169-264)
Technique: DNA-protein interaction ELISA
Form: double-stranded DNA, one strand shown
Medium: in vitro, bacterial lysate
Concentration: not given
Notes: whole dsDNA probe, crude lysate protein
Relative to: highest signal in screen
Reading: higher = stronger binding
Target sequence (chain): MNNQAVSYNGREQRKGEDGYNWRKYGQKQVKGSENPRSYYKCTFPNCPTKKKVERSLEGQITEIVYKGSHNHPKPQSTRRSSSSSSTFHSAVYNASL
| Strand | relative absorbance |
| --- | --- |
| AAAAAATACATTTGACTTTGGGTTTCAAAA | 73.8 % of maximum |
| AAAAAAGGTTGGTACGTCGAGTTCTTAAAA | 15.5 % of maximum |
| AAAAAATCAACCATTATGGTATTACTAAAA | 30.6 % of maximum |
| AAAAAAGAGAATTGTCAGTGCCCAACAAAA | 24.4 % of maximum |
| AAAAAACCCATCCTTCGTTCCATCGTAAAA | 22.7 % of maximum |
| AAAAAAATCACGGTTCGACCTCCAGCAAAA | 15.1 % of maximum |
| AAAAAAGTCTAAGGACTTATAGCTGTAAAA | 43.1 % of maximum |
| AAAAAATTTGGTCTTCGTCCTCGCTTAAAA | 47.6 % of maximum |

Study 2
Target: Sal-like protein 4, full length isoform B (SALL4, Homo sapiens, UniProt Q9UJQ4-2, residues 1-616)
Technique: universal PBM
Form: double-stranded DNA, one strand shown
Medium: in vitro
Concentration: not given
Notes: 8-mer, flanks averaged, mean of replicates
Reading: higher = stronger binding
Target sequence (chain): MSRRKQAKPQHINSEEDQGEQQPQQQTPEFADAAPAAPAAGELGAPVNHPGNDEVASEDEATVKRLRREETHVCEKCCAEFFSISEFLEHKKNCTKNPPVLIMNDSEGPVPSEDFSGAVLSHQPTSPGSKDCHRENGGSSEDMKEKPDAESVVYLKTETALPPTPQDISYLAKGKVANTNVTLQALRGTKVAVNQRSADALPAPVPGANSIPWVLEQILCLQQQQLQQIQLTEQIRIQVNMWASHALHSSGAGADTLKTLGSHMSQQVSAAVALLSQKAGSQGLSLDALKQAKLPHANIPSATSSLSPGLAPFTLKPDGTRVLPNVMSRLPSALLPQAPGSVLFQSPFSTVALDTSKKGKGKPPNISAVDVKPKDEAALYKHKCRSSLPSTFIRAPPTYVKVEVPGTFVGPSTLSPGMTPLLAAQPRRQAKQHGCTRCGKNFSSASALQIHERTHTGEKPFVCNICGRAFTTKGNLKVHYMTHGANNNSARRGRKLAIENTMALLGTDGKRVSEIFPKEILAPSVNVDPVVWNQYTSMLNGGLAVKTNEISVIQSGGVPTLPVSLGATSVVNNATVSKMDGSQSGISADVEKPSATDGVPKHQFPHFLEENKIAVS
| Strand | E-score |
| --- | --- |
| CAACGAAA | 0.201 |
| AGTGGGGA | -0.185 |
| CCCTTGAC | -0.198 |
| AAATCTAT | 0.282 |
| ATAATCTA | 0.36 |
| CATTGTGG | -0.0198 |
| ATTCCAGG | -0.0553 |
| ATGTTGCC | 0.0283 |

Study 3
Target: Centromere-binding protein 1, full length, His-tagged (CBF1, Saccharomyces cerevisiae, UniProt P17106, residues 1-351)
Sequence of UniProt P17106 (whole entry, looked up): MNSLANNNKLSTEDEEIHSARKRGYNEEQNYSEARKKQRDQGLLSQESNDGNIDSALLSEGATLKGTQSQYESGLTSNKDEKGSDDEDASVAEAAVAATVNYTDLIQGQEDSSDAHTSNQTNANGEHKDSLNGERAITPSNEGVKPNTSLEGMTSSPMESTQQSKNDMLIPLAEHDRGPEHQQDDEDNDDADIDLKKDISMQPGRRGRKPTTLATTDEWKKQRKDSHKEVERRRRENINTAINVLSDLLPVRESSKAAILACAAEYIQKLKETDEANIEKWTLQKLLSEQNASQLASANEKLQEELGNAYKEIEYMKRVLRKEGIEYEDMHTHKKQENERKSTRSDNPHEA
Technique: competition protein-binding microarray
Form: double-stranded DNA, one strand shown
Medium: in vitro
Concentration: 2 µM
Notes: whole 60-bp probe, lowest competitor level
Added: Pho4 competitor, 0.05 µM
Reading: higher = stronger binding
| Strand | fluorescence intensity |
| --- | --- |
| GAAGGAGTGAGGGACCCCGTGGGTACCGAACCCCGAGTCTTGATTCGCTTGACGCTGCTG | 79.2 a.u. |
| GAATAGTTTTCTGTACACGTGGAGGTATAGTTCTCAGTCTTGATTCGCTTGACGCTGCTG | 1120 a.u. |
| AAATTACTAAGTTGGGCCGTGGGTGACGCCGTATGAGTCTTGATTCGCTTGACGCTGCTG | 62.5 a.u. |
| CGGGGTTAAGTTTGTCACCCAACTTGCTTGCAGCAGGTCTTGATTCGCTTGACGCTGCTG | 69.9 a.u. |
| TGCGCAACAACTTGTTGAGTGGGTGTATGTCTAGAAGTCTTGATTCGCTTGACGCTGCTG | 77.8 a.u. |
| GGGTTGGACAGGTTCAGCGTGATGGTAAGCAGCACTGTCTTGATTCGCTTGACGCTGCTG | 99.4 a.u. |
| AGAAACAACACTACTGCTGTGACAGTTCAAATCGGTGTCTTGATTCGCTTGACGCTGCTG | 69.1 a.u. |
| AAATTACTAAGTTGTCACGGTACTTACCCCGTATGAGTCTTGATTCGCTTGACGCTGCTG | 248 a.u. |

Mixed results
| Compound | target | effect on | technique | concentration | measurement | value |
| --- | --- | --- | --- | --- | --- | --- |
| O=C(NS(=O)(=O)c1ccc(NCC2CCOCC2)c([N+](=O)[O-])c1)c1ccc(N2CCN(Cc3ccc(C(F)(F)F)cc3-c3ccc(Cl)cc3)CC2)cc1Oc1cnc2[nH]ccc2c1 | Dual specificity tyrosine-phosphorylation-regulated kinase 2 (DYRK2, Homo sapiens, UniProt Q92630) | cell-free assay | competition with immobilised ligand | 1 µM | remaining binding | 100% |

Some of these lines once more (study 2):
| Strand | E-score |
| --- | --- |
| ATGTTGCC | 0.0283 |
| ATTCCAGG | -0.0553 |
